Values quoted from earlier work, collected from citations in different studies.
Lines come from different studies, so protocols differ. Positions of bridges follow the written chain, without caps; N, C: chain ends. Ends that are not written are not given here. No end group written: not given here.
B1: CCL4; sequence looked up; chain APMGSDPPTACCFSYTARKLPRNFVVDYYETSSLCSQPAVVFQTKRSKQVCADPSESWVQEYVYDLELN
Sequence of UniProt P06241 (whole entry, looked up): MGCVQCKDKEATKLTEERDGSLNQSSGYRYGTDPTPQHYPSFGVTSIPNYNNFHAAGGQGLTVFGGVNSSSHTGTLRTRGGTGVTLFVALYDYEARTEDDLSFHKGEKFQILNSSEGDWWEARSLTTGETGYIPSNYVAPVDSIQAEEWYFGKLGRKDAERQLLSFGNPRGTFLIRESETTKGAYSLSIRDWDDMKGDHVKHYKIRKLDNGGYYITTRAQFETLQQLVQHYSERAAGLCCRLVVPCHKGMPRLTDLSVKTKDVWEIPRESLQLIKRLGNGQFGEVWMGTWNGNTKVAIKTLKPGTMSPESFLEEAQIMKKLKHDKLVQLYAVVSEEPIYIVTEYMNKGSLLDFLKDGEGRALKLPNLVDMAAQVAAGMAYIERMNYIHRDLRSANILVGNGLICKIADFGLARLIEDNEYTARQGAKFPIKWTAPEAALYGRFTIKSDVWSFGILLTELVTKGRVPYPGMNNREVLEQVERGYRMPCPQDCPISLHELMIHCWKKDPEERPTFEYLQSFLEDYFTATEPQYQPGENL

CCL3  Kd (US28 D15A; binding, radioligand competition): 1.4 nM
enfortumab vedotin  clearance (rat): 1.8 to 3 mL/h/kg
melittin  MIC (Staphylococcus aureus; ATCC 25923; literature value): ≤ 1.6 µM
TVLICMNICWTGETQ (disulfide 5-9 (inferred)) (disulfide)  Kd (streptavidin; binding, bacterial display flow cytometry): 4 nM
Ac-MDRWLVKWKKKRKIRRRRRRRRRR (N-acetyl)  Kd (PCNA; binding): 1340 nM
pegcetacoplan  tolerability (rabbit; subcutaneous, 7, 28, 140 mg/kg/day daily, 28 days): not toxic
Ac-APPIPPPRRKR-NH2 (N-acetyl, C-amide)  Kd (Tyrosine-protein kinase Fyn, SH3 domain (FYN, Homo sapiens, UniProt P06241); binding; peptide): 620 nM
omiganan  MIC (Pseudomonas aeruginosa; ATCC 27853; literature value): 12.5 µM
ICSYVMYTTCFLRVY (disulfide 2-10 (inferred)) (disulfide)  Kd (streptavidin; binding, bacterial display flow cytometry): 8 nM
LPRTQPDGTSVP  Kd (human tankyrase-2 ARC4 domain; binding; peptide): 17200 nM
tixagevimab  Kd (SARS-CoV-2 spike protein; binding): 0.0028 nM
KSRPPRPPPKPLHLR  Kd (Abp1 SH3 domain (Saccharomyces cerevisiae); binding; peptide): 210 nM
B1 (CCL4)  Kd (US28 T12A; binding, radioligand competition): 5.7 nM
PVDPFEAQWAALENK  Kd (MDM2 SWIB domain; binding; peptide): 3300 nM
ubiquitin  Kd (Tumor susceptibility gene 101 protein, UEV domain (Homo sapiens, UniProt Q99816); binding): 500000 to 800000 nM

Some of these lines once more:
pegcetacoplan  tolerability (rabbit; subcutaneous, 7, 28, 140 mg/kg/day daily, 28 days): not toxic
